Assay results collected from several papers.
Several values in a cell are separate wells, animals, samples, runs or records. ± marks the error that the study gave.

SMILES | cell line | test | setting | how to read | quantity | value
COC(=O)c1sc(-c2cccs2)cc1NC(=O)/C=C/C(=O)O | 3T3-L1 adipocytes | lipolysis | concentration not given, 24 h, added: 20 µM forskolin or basal |  | fatty acid efflux | decreased
C=CCn1c(=O)c2cnc(Nc3ccc(N4CCN(C)CC4)cc3)nc2n1-c1ccc2c(n1)[C@@](O)(CC)CC2 | OVCAR-3 | flow cytometry, item: pHH3-γH2Ax+ | concentration not given |  | G2/M cells in subpopulation | 4.1%
Cc1cc(C)n(-c2nc(-c3ccc(Cl)cc3)c3c(NC(=O)c4ccccc4)nnc-3[nH]2)n1 | Hs-578T | SRB | 10 µM, NCI60 single-dose screen | baseline: untreated | cell growth | 80%
OC1(c2ccc(Cl)c(C(F)(F)F)c2)CCN(CCCC(c2ccc(F)cc2)c2ccc(F)cc2)CC1 | BT-12 | cell viability, MTT | 10 µM, 72 h |  | inhibition | 95.9%
CC/C(=N\NC(=O)C(C)Nc1ccccc1)c1ccc(O)c(C)c1O (centres unmarked) | SK-OV-3 | Western blot, item: phospho-YAP | 10 µM, 3 h, 3D gellan gum culture, unit not given | baseline: total YAP | protein level | 0.29 ± 0.12
C[C@]12CCCN1CC1=NNC(=O)c3cc(F)cc4[nH]c2c1c34 | HGC-27 gastric cancer cells | cell viability | concentration not given, added: with temozolomide |  | EC50 | 4.9 µM
O=C(CCCCCCC(=O)Nc1cccnc1)NO | HBL-1 |  | 0.5 µM, 120 h |  | viability | 81.3%
O=C(c1cc2cc(O)ccc2[nH]1)c1cc2cc(O)ccc2[nH]1 | HeLa expressing Ub(G76V)-GFP | Ub(G76V)-GFP degradation, inhibitor, cycloheximide chase | 12 µM |  | inhibition | 28%
Nc1ncnc2c1ncn2[C@@H]1O[C@H](CO)[C@@H](O)[C@H]1O | activated human T cells |  | 31.6 µM | higher = more TNF | TNF production | 2670 a.u. and 2260 a.u. and 2410 a.u.
O=C(/C=C/C=C/C=C/C1CCCCC1)NC1=C[C@@](O)(/C=C/C=C/C=C/C(=O)NC2=C(O)CCC2=O)[C@@H]2O[C@@H]2C1=O | G-402 | cell growth, CellTiter-Glo | 78 h |  | GI50 | 8.28 µM
CCn1cc(-c2cc(Cn3ccnc3)cc3c2CCN([C@H](c2cc(OC)ccn2)C2CC2)C3=O)c(C(F)(F)F)n1 | OCI-Ly7 | cell growth, inhibitor | 120 h |  | EC50 | 16.1 µM
Cc1cc(C)c(CNC(=O)c2cc(-c3ccc(CN4CCOCC4)cc3)cc3c2cnn3C2CCCC2)c(=O)[nH]1 | HBL-1 |  | 0.1 µM, 120 h |  | viability | 119%
Nc1ncnc2c1cnn2-c1ccccc1 | HeLa expressing Ub(G76V)-GFP | Ub(G76V)-GFP degradation, cycloheximide chase | 12 µM |  | inhibition | 5%
O=C(/C=C/C#Cc1cccc(NS(=O)(=O)c2ccccc2)c1)NO | HBL-1 |  | 1 µM, 120 h |  | viability | 5.47%
Nc1ccc(-c2ccc3ncc4ccc(=O)n(-c5cccc(C(F)(F)F)c5)c4c3c2)cn1 | BT-12 | cell viability, MTT | 10 µM, 72 h |  | inhibition | 93.3%
COc1ccc(Cn2ccc3ccc(C(=O)NO)cc32)cc1 | HBL-1 |  | 1 µM, 120 h |  | viability | 107%
CCOc1cc2ncnc(Nc3cccc(Br)c3)c2cc1OCC | HeLa expressing Ub(G76V)-GFP | Ub(G76V)-GFP degradation, inhibitor, cycloheximide chase | 12 µM |  | inhibition | 25%
CCCCCCCCCCCCCCCc1cccc(O)c1C(=O)O | HBL-1 |  | 1 µM, 120 h |  | viability | 106%
CC(Nc1nc(N2CCCC2)nc2ccccc12)c1ccccc1 (centres unmarked) | HeLa Kyoto | RelA nuclear import, high content imaging | 50 µM, 3 h, added: 1 µM PMA, 60 min |  | cells with nuclear RelA | 31.3% and 35.4%
COC(=O)c1ccc(N2CCN(C)CC2)c(NC(=O)c2cccc(OC)c2)c1 | HBL-1 |  | 1 µM, 120 h |  | viability | 95.1%
Nc1nc(S)nc(O)c1N=Cc1cn(-c2ccccc2)nc1-c1ccc(Cl)cc1 | CCRF-CEM | differential nuclear staining |  |  | CC30 | 9.08 µM
Cc1ccc(C(=O)Nc2ccc(S(=O)(=O)O)c3cc(S(=O)(=O)O)cc(S(=O)(=O)O)c23)cc1NC(=O)c1cccc(NC(=O)Nc2cccc(C(=O)Nc3cc(C(=O)Nc4ccc(S(=O)(=O)O)c5cc(S(=O)(=O)O)cc(S(=O)(=O)O)c45)ccc3C)c2)c1 | HBL-1 |  | 0.5 µM, 120 h |  | viability | 113%
Cn1c(Nc2nc3ccc(C(F)(F)F)cc3s2)nc2cc(C(=O)NCCOCCO)ccc21 | SH-SY5Y | RNA-seq, item: XYLT1 mRNA | 5 µM, 5 h | baseline: untreated cells | fold change | 1.62

For quick reference, copied from above:
SMILES | cell line | test | setting | how to read | quantity | value
COC(=O)c1sc(-c2cccs2)cc1NC(=O)/C=C/C(=O)O | 3T3-L1 adipocytes | lipolysis | concentration not given, 24 h, added: 20 µM forskolin or basal |  | fatty acid efflux | decreased
O=C(c1cc2cc(O)ccc2[nH]1)c1cc2cc(O)ccc2[nH]1 | HeLa expressing Ub(G76V)-GFP | Ub(G76V)-GFP degradation, inhibitor, cycloheximide chase | 12 µM |  | inhibition | 28%
